{"data": "Measurements collected from several papers", "note": "Every numbered part comes from another study and shows a few of its results, in no order.", "chain of UniProt P31645 (whole entry, looked up)": "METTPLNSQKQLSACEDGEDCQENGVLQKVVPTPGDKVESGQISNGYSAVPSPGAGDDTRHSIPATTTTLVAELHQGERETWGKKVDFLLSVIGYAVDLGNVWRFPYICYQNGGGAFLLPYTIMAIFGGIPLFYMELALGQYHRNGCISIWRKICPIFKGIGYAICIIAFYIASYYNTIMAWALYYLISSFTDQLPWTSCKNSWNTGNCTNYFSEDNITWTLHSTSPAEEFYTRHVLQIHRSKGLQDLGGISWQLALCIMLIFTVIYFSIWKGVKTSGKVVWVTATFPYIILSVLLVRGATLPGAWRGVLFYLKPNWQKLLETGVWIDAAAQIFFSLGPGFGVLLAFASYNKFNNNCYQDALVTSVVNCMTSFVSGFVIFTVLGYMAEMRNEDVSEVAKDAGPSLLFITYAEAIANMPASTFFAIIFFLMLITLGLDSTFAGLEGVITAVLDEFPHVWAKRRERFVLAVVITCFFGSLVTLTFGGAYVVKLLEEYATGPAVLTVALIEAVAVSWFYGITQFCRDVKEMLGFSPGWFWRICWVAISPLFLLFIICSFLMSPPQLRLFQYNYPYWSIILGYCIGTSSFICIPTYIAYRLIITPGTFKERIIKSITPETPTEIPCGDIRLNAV"}
{"data": "Series 1", "cell line": "mouse MPNST tumor cells", "technique": "high-content immunofluorescence imaging", "item": "nuclear SOX9", "concentration": "10 µM", "time": "12 h", "setting": "mean of 2 replicates", "baseline": "DMSO control", "reading": "higher = more nuclear SOX9"}
{"Structure (SMILES)": "COc1ccc2c(c1)c(CC(=O)OCC(=O)O)c(C)n2C(=O)c1ccc(Cl)cc1", "nuclear SOX9 intensity": "96.5 % of DMSO"}
{"Structure (SMILES)": "Cc1cc(-c2nc(C(=O)Nc3cn(C4CCOCC4)nc3C(N)=O)co2)ccn1", "nuclear SOX9 intensity": "100 % of DMSO"}
{"Structure (SMILES)": "C[N+]1(C)CCC(OC(=O)C(O)(c2ccccc2)C2CCCC2)C1 (stereo not shown)", "nuclear SOX9 intensity": "116 % of DMSO"}
{"Structure (SMILES)": "Cn1c(=O)c2c(nc(N3CCNCC3)n2Cc2nnc(-c3ccc(Cl)c(Cl)c3)o2)n(C)c1=O", "nuclear SOX9 intensity": "154 % of DMSO"}
{"Structure (SMILES)": "C[C@@H]1C[C@H]2[C@@H]3CCC4=CC(=O)C=C[C@]4(C)[C@@]3(Cl)[C@@H](O)C[C@]2(C)[C@@]1(OC(=O)c1ccco1)C(=O)CCl", "nuclear SOX9 intensity": "118 % of DMSO"}
{"Structure (SMILES)": "CC1(C)NC(=O)N(c2ccc([N+](=O)[O-])c(C(F)(F)F)c2)C1=O", "nuclear SOX9 intensity": "101 % of DMSO"}
{"Structure (SMILES)": "C=CC1=C(C(=O)O)N2C(=O)[C@@H](NC(=O)/C(=N\\OCC(=O)O)c3csc(N)n3)[C@H]2SC1", "nuclear SOX9 intensity": "95.2 % of DMSO"}
{"Structure (SMILES)": "CN(C)CCC1(c2ccc(Cl)cc2)Cc2ccccc2C(=O)O1 (stereo not shown)", "nuclear SOX9 intensity": "112 % of DMSO"}
{"data": "Series 2", "organism": "Plasmodium berghei", "cell line": "Huh-7", "strain": "liver stage", "concentration": "10 µM", "time": "24 h", "baseline": "control"}
{"Structure (SMILES)": "COc1ccc(Cc2nccc3cc(OC)c(OC)cc23)cc1OC", "parasite load [%]": 33}
{"Structure (SMILES)": "Clc1ccc2c(c1)C(N1CCNCC1)=Nc1ccccc1O2", "parasite load [%]": 77.1}
{"Structure (SMILES)": "CC(C)c1c(C(=O)Nc2ccccc2)c(-c2ccccc2)c(-c2ccc(F)cc2)n1CC[C@@H](O)C[C@@H](O)CC(=O)O", "parasite load [%]": 89}
{"Structure (SMILES)": "CN[C@H]1CC[C@@H](c2ccc(Cl)c(Cl)c2)c2ccccc21", "parasite load [%]": 50.4}
{"Structure (SMILES)": "COc1cc2c(cc1OC)C(=O)C(CC1CCN(Cc3ccccc3)CC1)C2 (stereo not shown)", "parasite load [%]": 95}
{"Structure (SMILES)": "Fc1ccc(C(c2ccc(F)cc2)N2CCN(C/C=C/c3ccccc3)CC2)cc1", "parasite load [%]": 45.6}
{"Structure (SMILES)": "CN1CCN(CCCN2c3ccccc3Sc3ccc(Cl)cc32)CC1", "parasite load [%]": 45.4}
{"Structure (SMILES)": "CN1[C@@H]2CC[C@H]1C[C@@H](OC(=O)[C@H](CO)c1ccccc1)C2", "parasite load [%]": 104}
{"data": "Series 3", "species": "mouse", "sample": "microsomes or S9", "concentration": "2 µM", "time": "0.5 h"}
{"Compound": "CCn1cc(S(=O)(=O)N2CCc3n[nH]c(=O)n3CC2)cn1", "remaining compound [%]": 36.7}
{"Compound": "CN(CC(=O)O)C(=O)c1cc(S(=O)(=O)N(C)C)cs1", "remaining compound [%]": 72.4}
{"Compound": "O=c1ccc2cc(S(=O)(=O)N3CCOCC3)ccc2[nH]1", "remaining compound [%]": 79.2}
{"Compound": "O=C(Nc1ccccc1Cl)NC1(C(=O)N2CCC(O)CC2)CCCCC1", "remaining compound [%]": 81.6}
{"Compound": "O=C(NC1CCN(Cc2ccc(Cl)c(Cl)c2)CC1)c1cc2ccc3ccccc3c2o1", "remaining compound [%]": 62.7}
{"Compound": "CCc1[nH]c(C(=O)Nc2cc(S(=O)(=O)N3CCCC3)ccc2O)c(C)c1C(=O)OC", "remaining compound [%]": "< 1"}
{"Compound": "COc1cc(=O)n(-c2ccccc2)cc1C(=O)NCC1CCCO1 (stereo not shown)", "remaining compound [%]": 61.6}
{"Compound": "Cc1cc(C)cc(C(=O)c2c(C(C)C)c(=O)[nH]c(=O)n2Cc2ccnc(N)c2)c1", "remaining compound [%]": 17.4}
{"data": "Other studies, line by line"}
{"SMILES": "CCC(=O)N[C@@H]1CC[C@H](C(=O)N(C)c2ccc(-c3nc4ccccc4o3)cc2)C1", "target": "Sodium-dependent serotonin transporter (SLC6A4, Homo sapiens, UniProt P31645)", "test": "binding, radioligand binding", "conditions": "10 µM", "endpoint": "inhibition", "value": "20.2%"}
{"note": "A few entries again (series 1):"}
{"Structure (SMILES)": "CC1(C)NC(=O)N(c2ccc([N+](=O)[O-])c(C(F)(F)F)c2)C1=O", "nuclear SOX9 intensity": "101 % of DMSO"}
{"Structure (SMILES)": "C=CC1=C(C(=O)O)N2C(=O)[C@@H](NC(=O)/C(=N\\OCC(=O)O)c3csc(N)n3)[C@H]2SC1", "nuclear SOX9 intensity": "95.2 % of DMSO"}
{"Structure (SMILES)": "CN(C)CCC1(c2ccc(Cl)cc2)Cc2ccccc2C(=O)O1 (stereo not shown)", "nuclear SOX9 intensity": "112 % of DMSO"}
